# Published values gathered from unrelated publications.
# A part holds a random share of what one study measured.
# UniProt Q9UQ88, sequence (whole entry, looked up): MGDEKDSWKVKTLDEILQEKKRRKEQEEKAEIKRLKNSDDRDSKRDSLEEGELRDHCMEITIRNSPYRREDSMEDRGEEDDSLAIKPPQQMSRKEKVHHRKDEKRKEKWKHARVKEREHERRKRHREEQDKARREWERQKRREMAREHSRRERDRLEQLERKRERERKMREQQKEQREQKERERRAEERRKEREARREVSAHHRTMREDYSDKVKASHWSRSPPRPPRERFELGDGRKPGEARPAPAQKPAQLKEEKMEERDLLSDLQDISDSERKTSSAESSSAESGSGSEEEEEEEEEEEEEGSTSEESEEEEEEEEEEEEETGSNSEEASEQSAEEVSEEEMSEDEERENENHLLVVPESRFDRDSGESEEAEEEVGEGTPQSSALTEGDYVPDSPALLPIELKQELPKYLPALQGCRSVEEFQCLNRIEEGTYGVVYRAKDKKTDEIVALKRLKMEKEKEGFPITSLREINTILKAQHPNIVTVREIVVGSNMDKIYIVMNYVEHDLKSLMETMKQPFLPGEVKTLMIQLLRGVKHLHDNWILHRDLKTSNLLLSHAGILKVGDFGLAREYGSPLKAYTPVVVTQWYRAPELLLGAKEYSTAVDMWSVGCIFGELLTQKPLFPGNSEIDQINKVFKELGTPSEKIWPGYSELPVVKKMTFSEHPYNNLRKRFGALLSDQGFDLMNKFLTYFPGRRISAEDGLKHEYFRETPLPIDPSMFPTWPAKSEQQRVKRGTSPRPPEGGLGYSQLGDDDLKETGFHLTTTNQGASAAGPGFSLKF
# UniProt P42679, sequence (whole entry, looked up): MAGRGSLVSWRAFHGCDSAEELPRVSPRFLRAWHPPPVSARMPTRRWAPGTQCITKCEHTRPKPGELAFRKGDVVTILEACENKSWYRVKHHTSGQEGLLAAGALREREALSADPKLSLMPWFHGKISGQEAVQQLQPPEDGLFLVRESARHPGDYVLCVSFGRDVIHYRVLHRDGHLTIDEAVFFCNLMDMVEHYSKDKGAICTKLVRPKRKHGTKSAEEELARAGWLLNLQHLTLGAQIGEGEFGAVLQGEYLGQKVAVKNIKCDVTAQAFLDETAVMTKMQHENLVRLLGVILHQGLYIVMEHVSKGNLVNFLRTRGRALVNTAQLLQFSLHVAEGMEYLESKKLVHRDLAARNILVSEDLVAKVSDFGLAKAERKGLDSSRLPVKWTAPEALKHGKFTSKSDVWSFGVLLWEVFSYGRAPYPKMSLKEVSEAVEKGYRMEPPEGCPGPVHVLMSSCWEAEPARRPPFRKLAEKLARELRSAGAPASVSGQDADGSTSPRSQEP
# UniProt P07332, sequence (whole entry, looked up): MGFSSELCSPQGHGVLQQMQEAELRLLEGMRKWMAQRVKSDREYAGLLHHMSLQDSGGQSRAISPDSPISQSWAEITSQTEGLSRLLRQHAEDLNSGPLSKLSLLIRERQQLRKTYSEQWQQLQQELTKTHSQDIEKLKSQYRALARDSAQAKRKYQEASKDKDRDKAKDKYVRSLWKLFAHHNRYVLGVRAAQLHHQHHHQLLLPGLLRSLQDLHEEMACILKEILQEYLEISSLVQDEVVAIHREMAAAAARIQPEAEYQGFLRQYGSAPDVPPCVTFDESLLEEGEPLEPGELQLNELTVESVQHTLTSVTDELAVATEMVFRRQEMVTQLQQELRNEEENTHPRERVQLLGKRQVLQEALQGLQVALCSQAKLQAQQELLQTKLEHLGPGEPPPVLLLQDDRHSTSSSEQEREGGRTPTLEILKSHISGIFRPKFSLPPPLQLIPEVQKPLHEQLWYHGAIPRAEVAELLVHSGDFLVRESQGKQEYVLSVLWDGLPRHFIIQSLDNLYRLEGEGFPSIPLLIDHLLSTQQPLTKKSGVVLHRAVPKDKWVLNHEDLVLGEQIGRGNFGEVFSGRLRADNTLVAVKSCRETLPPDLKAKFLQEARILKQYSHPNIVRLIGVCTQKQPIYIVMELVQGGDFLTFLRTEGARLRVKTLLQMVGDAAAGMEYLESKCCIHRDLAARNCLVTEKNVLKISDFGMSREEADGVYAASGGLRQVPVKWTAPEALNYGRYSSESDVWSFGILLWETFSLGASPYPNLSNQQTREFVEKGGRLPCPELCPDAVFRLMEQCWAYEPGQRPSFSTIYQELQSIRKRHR
# UniProt Q9Y6M4, sequence (whole entry, looked up): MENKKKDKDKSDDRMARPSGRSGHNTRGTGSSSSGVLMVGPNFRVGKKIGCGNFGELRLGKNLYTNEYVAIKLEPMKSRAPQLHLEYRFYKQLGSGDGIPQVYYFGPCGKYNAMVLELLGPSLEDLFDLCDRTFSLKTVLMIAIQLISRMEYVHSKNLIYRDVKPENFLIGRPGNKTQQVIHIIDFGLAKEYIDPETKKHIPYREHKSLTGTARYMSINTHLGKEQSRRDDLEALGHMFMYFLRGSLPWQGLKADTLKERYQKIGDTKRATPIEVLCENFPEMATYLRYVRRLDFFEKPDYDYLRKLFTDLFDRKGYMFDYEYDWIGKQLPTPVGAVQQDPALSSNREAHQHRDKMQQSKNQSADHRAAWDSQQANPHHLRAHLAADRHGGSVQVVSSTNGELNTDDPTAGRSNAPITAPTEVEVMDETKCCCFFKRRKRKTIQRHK
# UniProt P07949, sequence (whole entry, looked up): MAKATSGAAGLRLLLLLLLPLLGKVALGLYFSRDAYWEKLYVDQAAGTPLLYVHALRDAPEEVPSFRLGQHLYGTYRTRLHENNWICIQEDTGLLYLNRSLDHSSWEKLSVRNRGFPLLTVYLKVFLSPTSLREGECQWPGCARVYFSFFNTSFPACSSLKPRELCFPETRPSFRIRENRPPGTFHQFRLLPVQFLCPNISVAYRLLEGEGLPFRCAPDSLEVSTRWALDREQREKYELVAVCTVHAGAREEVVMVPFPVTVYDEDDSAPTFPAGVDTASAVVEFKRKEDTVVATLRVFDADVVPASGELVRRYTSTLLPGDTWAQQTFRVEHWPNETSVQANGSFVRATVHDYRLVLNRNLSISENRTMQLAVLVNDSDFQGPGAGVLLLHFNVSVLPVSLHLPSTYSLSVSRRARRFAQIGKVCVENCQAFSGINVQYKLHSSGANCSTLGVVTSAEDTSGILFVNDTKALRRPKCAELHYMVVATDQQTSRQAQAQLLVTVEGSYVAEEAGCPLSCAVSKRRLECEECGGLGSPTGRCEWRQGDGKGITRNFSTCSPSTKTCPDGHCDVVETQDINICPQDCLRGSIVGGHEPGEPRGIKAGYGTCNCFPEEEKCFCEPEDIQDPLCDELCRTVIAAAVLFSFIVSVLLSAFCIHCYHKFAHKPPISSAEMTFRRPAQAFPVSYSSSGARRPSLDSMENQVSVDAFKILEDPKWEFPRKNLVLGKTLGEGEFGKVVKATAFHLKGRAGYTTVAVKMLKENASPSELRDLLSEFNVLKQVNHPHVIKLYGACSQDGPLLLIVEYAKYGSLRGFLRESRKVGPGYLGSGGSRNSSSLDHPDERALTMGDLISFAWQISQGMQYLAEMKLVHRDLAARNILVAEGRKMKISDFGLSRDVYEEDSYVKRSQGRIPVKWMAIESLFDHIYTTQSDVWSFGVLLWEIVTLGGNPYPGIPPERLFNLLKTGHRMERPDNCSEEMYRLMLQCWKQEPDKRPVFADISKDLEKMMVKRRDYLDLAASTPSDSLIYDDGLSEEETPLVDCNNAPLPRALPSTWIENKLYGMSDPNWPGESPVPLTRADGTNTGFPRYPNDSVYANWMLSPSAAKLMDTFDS
# UniProt P11309, sequence (whole entry, looked up): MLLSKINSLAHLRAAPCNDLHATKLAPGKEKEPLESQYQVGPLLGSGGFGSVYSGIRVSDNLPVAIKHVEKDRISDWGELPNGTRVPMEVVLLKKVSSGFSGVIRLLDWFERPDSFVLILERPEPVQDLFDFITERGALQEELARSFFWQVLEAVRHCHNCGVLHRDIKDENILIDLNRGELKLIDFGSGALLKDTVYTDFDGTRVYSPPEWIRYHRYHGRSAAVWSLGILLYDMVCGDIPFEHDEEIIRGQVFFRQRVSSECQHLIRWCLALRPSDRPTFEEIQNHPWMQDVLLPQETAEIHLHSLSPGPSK
# UniProt Q9UPE1, sequence (whole entry, looked up): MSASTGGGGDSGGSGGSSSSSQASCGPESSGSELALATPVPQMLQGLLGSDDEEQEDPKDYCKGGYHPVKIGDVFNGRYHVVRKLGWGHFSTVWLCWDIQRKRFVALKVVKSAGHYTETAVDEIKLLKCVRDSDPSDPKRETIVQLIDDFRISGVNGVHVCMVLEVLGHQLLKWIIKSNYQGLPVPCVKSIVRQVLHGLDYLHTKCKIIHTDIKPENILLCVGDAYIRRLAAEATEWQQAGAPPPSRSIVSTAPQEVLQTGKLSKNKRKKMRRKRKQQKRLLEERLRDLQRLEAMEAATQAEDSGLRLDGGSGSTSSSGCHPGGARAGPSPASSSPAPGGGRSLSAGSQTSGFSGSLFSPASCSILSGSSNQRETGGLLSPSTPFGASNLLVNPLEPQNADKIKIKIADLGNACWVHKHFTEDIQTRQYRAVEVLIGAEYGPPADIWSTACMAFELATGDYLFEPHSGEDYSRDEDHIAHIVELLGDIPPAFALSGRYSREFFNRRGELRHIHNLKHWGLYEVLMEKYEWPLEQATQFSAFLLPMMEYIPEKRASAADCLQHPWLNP

# Study 1
# Cell line: Huh-7
# Concentration: 10 µM
# Time: 24 h
SMILES,viability [%]
O[C@H]1[C@H](O)[C@@H](O)[C@H](O)[C@@H](O)[C@H]1O,104
C[C@]12CCC(=O)C=C1CC[C@@H]1[C@@H]2[C@@H](O)C[C@@]2(C)[C@H]1CC[C@]2(O)C(=O)COC(=O)CCC(=O)O,99.1
C=CCCCCCCCCC(=O)O,98.5
COCCCC/C(=N\OCCN)c1ccc(C(F)(F)F)cc1,99
CC(=O)N(O)CCCCCNC(=O)CCC(=O)N(O)CCCCCNC(=O)CCC(=O)N(O)CCCCCN,89.3
CC(C(=O)O)c1ccc(C(=O)c2cccs2)cc1 (stereo not shown),97.2
Nc1ccc(S(=O)(=O)Nc2nccs2)cc1,108
COc1cc(C(=O)NCCCCCC(=O)O)cc(OC)c1OC,97.8
NC(=O)CC[C@H](N)C(=O)O,103
CN(C)[C@@H]1C(O)=C(C(N)=O)C(=O)[C@@]2(O)C(O)=C3C(=O)c4c(O)ccc(Cl)c4[C@@H](O)[C@H]3C[C@@H]12,90.2
CCCOc1ccc(C(=O)OCCN(CC)CC)cc1N,98.9
CC1=C(CC(=O)O)c2cc(F)ccc2/C1=C\c1ccc([S+](C)[O-])cc1 (stereo not shown),100
CCCN(CCC)C(=O)C(CCC(=O)O)NC(=O)c1ccccc1 (stereo not shown),102
O=C1CN(/N=C/c2ccc(-c3ccc([N+](=O)[O-])cc3)o2)C(O)=N1,96.5
Nc1nc(/C(=C/CC(=O)O)C(=O)N[C@@H]2C(=O)N3C(C(=O)O)=CCS[C@H]23)cs1,97.3
CNC(=C[N+](=O)[O-])NCCSCc1csc(CN(C)C)n1,103

# Study 2
# Compound: Cc1ccc(NC(=O)c2ccnc(C(F)(F)F)c2)cc1-c1cc(OCCO)nc(N2CCOCC2)c1
# Concentration: 1 µM
target,test,conditions,scale,remaining binding [%]
"Interleukin-1 receptor-associated kinase 4 (IRAK4, Homo sapiens, UniProt Q9NWZ3)",competitive binding panel,,reference: vehicle,100
"Bone morphogenetic protein receptor type-1A (BMPR1A, Homo sapiens, UniProt P36894)",competitive binding panel,,reference: vehicle,88
"Casein kinase I isoform gamma-3 (CSNK1G3, Homo sapiens, UniProt Q9Y6M4)",competitive binding panel,,reference: vehicle,100
"Phosphatidylinositol 4-phosphate 5-kinase type-1 gamma (PIP5K1C, Homo sapiens, UniProt O60331)",competitive binding panel,,reference: vehicle,98
"Mitogen-activated protein kinase kinase kinase 3 (MAP3K3, Homo sapiens, UniProt Q99759)",competitive binding panel,,reference: vehicle,100
"Activin receptor type-1B (ACVR1B, Homo sapiens, UniProt P36896)",competitive binding panel,,reference: vehicle,99
"Cyclin-dependent kinase 2 homolog (CRK2, Plasmodium falciparum, UniProt P61075)","competitive binding, DiscoverX scanMAX binding",,,93
"Proto-oncogene tyrosine-protein kinase receptor Ret (RET, Homo sapiens, UniProt P07949)",competitive binding panel,,reference: vehicle,92
"Misshapen-like kinase 1 (MINK1, Homo sapiens, UniProt Q8N4C8)",competitive binding,MINK,,83
"Epidermal growth factor receptor (EGFR, Homo sapiens, UniProt P00533, L858R/T790M)",competitive binding panel,,reference: vehicle,84
"Tyrosine-protein kinase ABL1 (ABL1, Homo sapiens, UniProt P00519, M351T)",competitive binding panel,,reference: vehicle,100
"Casein kinase II subunit alpha (CSNK2A1, Homo sapiens, UniProt P68400)",competitive binding panel,,reference: vehicle,85
"Cyclin-dependent kinase 11A (CDK11A, Homo sapiens, UniProt Q9UQ88)","competitive binding panel, item: CDC2L2",,reference: vehicle,49

# Study 3
# Target: Cyclin-dependent kinase 3, with cyclin E (CDK3, Homo sapiens, UniProt Q00526)
# UniProt Q00526, sequence (whole entry, looked up): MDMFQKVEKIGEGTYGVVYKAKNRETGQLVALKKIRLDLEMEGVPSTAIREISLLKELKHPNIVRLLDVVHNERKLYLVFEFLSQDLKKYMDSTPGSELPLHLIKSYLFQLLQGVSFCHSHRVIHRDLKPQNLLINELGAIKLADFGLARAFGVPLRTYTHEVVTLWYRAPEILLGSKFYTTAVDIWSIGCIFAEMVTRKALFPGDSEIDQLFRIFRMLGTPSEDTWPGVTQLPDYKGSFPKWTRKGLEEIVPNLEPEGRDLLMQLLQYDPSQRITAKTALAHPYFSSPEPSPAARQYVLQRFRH
# Read-out: enzyme activity
# Mode: inhibitor
# Concentration: 0.5 µM
# Reference: control
Compound,remaining activity [%]
O=C(c1ccccc1)c1ccc(N2CCOCC2)cc1O,105
N#CC(c1ccnc(NCCc2cccnc2)n1)c1nc2ccccc2s1 (stereo not shown),92.3
C[C@@H](N)[C@H]1CC[C@H](C(=O)Nc2ccncc2)CC1,97.1
CC(C)n1cnc2c(Nc3cccc(Cl)c3)nc(NCCO)nc21,76.9
COc1cc2c(Nc3ccc(Br)cc3F)ncnc2cc1OCC1CCN(C)CC1,92.9
O=Nc1c(-c2c(O)[nH]c3ccccc23)[nH]c2ccccc12,52.3
Clc1ccc(Nc2nnc(Cc3ccncc3)c3ccccc23)cc1,92.7
O=C(O)/C=C/c1cc(Br)c(Br)c(Br)c1Br,98.3
CC(C)N(CCC(=O)c1ccc2ccccc2c1)Cc1ccccc1,91.4
O=C1NC(=O)/C(=C/c2ccc3c(c2)OC(F)(F)O3)S1,99.4
O=C1c2ccccc2-c2nc3nnnn3nc21,73.4
CCN(CC)CCCCN1c2ccccc2Oc2ccc(Cl)cc21,90.3
O=c1c(-c2ccc(F)cc2)c(-c2ccncc2)[nH]n1-c1ccc(Cl)cc1,86.9
CCCCc1c(-c2ccc(O)cc2)[nH]c2nccnc12,76.8
FC(F)(F)c1ccc(/C=C/c2nc(COc3ccc(CCCCn4ccnn4)cc3)co2)cc1,91
NC(=O)c1ccc(-c2nc(-c3ccc4c(c3)OCCO4)c(-c3ccccn3)[nH]2)cc1,99.4
Nc1nc(Nc2ccc(S(N)(=O)=O)cc2)nn1C(=S)Nc1c(F)cccc1F,-0.912
N#C/C(=C(/N)SC1C=CC=CC1)c1cccc(C(O)c2ccncc2)c1 (stereo not shown),95.6
c1cc(-c2cnn3cc(-c4ccc(OCCN5CCCCC5)cc4)cnc23)ccn1,89.9
COc1cc2c(N3CCN(C(=O)Nc4ccc(OC(C)C)cc4)CC3)ncnc2cc1OCCCN1CCCCC1,90.6
NC(=O)c1cccc(-c2cc(Nc3ccc(OC(F)(F)F)cc3)ncn2)c1,98.8
CC(C)(C)c1nc2c3cc[nH]c(=O)c3c3cc(F)ccc3c2[nH]1,92.1
CNc1cc2c(Nc3cccc(Br)c3)ncnc2cn1,80.2

# Study 4
# SMILES: Cc1nc(C2CCN(C(=O)c3ccc(OC(F)(F)F)cc3N)CC2)c2ncc(N3CCN(C)CC3)cc2n1
# Technique: competition with immobilised ligand
# Concentration: 1 µM
target,test,remaining binding
"Tyrosine-protein kinase Fes/Fps (FES, Homo sapiens, UniProt P07332)",cell-free assay,96%
"Tyrosine-protein kinase Lyn (LYN, Homo sapiens, UniProt P07948)",cell-free assay,100%
"Phosphatidylinositol 4,5-bisphosphate 3-kinase catalytic subunit alpha isoform (PIK3CA, Homo sapiens, UniProt P42336, H1047L)",cell-free assay,87%
"Serine/threonine-protein kinase WNK4 (WNK4, Homo sapiens, UniProt Q96J92)",cell-free assay,100%
"Vascular endothelial growth factor receptor 1 (FLT1, Homo sapiens, UniProt P17948)",cell-free assay,88%
"Serine/threonine-protein kinase VRK2 (VRK2, Homo sapiens, UniProt Q86Y07)",cell-free assay,100%
"LIM domain kinase 1 (LIMK1, Homo sapiens, UniProt P53667)",cell-free assay,93%
"Membrane-associated tyrosine- and threonine-specific cdc2-inhibitory kinase (PKMYT1, Homo sapiens, UniProt Q99640)",cell-free assay,100%
"Receptor-type tyrosine-protein kinase FLT3 (FLT3, Homo sapiens, UniProt P36888, ITD)",cell-free assay,100%
"Megakaryocyte-associated tyrosine-protein kinase (MATK, Homo sapiens, UniProt P42679)",cell-free assay,100%
"Receptor-type tyrosine-protein kinase FLT3 (FLT3, Homo sapiens, UniProt P36888, D835Y)",cell-free assay,97%
"Cyclin-dependent kinase 11A (CDK11A, Homo sapiens, UniProt Q9UQ88)",binding,100%
"Cyclin-dependent kinase 2 (CDK2, Homo sapiens, UniProt P24941)",cell-free assay,87%
"Protein-tyrosine kinase 6 (PTK6, Homo sapiens, UniProt Q13882)",cell-free assay,100%
"SRSF protein kinase 3 (SRPK3, Homo sapiens, UniProt Q9UPE1)",cell-free assay,100%
"Ribosomal protein S6 kinase alpha-3, C-terminal kinase domain (RPS6KA3, Homo sapiens, UniProt P51812)",cell-free assay,82%
"Mast/stem cell growth factor receptor Kit (KIT, Homo sapiens, UniProt P10721, D816H)",cell-free assay,100%
"Serine/threonine-protein kinase pim-1 (PIM1, Homo sapiens, UniProt P11309)",cell-free assay,100%

# Some of these lines once more (study 3):
Compound,remaining activity [%]
O=C(O)/C=C/c1cc(Br)c(Br)c(Br)c1Br,98.3
CCN(CC)CCCCN1c2ccccc2Oc2ccc(Cl)cc21,90.3
NC(=O)c1ccc(-c2nc(-c3ccc4c(c3)OCCO4)c(-c3ccccn3)[nH]2)cc1,99.4
N#C/C(=C(/N)SC1C=CC=CC1)c1cccc(C(O)c2ccncc2)c1 (stereo not shown),95.6
Nc1nc(Nc2ccc(S(N)(=O)=O)cc2)nn1C(=S)Nc1c(F)cccc1F,-0.912
NC(=O)c1cccc(-c2cc(Nc3ccc(OC(F)(F)F)cc3)ncn2)c1,98.8
N#CC(c1ccnc(NCCc2cccnc2)n1)c1nc2ccccc2s1 (stereo not shown),92.3
O=C1NC(=O)/C(=C/c2ccc3c(c2)OC(F)(F)O3)S1,99.4
COc1cc2c(N3CCN(C(=O)Nc4ccc(OC(C)C)cc4)CC3)ncnc2cc1OCCCN1CCCCC1,90.6
CC(C)n1cnc2c(Nc3cccc(Cl)c3)nc(NCCO)nc21,76.9
O=c1c(-c2ccc(F)cc2)c(-c2ccncc2)[nH]n1-c1ccc(Cl)cc1,86.9
